Published values gathered from unrelated publications.
A part holds a random share of what one study measured. Substitutions count along the parent as printed.

Study 1
Target: UBE2G1 UBC core domain (UniProt P62253)
Technique: yeast two-hybrid
Matrix: yeast
Setting: mostly zero background
Relative to: not given
Reading: higher = stronger interaction
B1: ZMYND11 RING domain (UniProt Q15326); chain DEIDWETENHDWYCFECHLPGEVLICDLCFRVYHSKCLSDEFRLRDSSSPWQCPVCRSIKKKNTNKQEM
B2: CNOT4 RING domain (UniProt O95628); chain MSRSPDAKEDPVECPLCMEPLEIDDINFFPCTCGYQICRFCWHRIRTDENGLCPACRKPYPED
B3: BFAR RING domain (UniProt Q9NZS9); chain GPQISVSEFSCHCCYDILVNPTTLNCGHSFCRHCLALWWASSKKTECPECREKWEGFPKVS
B4: ZNRF4 RING domain (UniProt Q8WWF5); chain VRTFTWHNDLCAICLDEYEEGDQLKILPCSHTYHCKCIDPWFSQAPRRSCPVCKQSVAATEDSF
B5: RNF103 RING domain (UniProt O00237); chain WPADMLHCTECVVCLENFENGCLLMGLPCGHVFHQNCIVMWLAGGRHCCPVCRWPSYKKKQPY
Construct (chain): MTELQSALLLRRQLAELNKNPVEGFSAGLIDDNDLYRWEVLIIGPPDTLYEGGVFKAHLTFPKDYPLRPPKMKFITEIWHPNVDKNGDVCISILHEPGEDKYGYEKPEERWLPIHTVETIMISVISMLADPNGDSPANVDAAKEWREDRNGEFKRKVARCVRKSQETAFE
Molecule | lacZ reporter activity
B1 (ZMYND11 RING domain) | 0
B2 (CNOT4 RING domain) | 0
FAEQPSVKLCCQLCCSVFKDPVITTCGHTFCRRCALKSEKCPVDNVKLTVVVNNI (TRAF7 RING domain (UniProt Q6Q0C0)) | 0
B3 (BFAR RING domain) | 0
B4 (ZNRF4 RING domain) | 0
B5 (RNF103 RING domain) | 0

Study 2
Target: CCNB1, cyclin fold, Cln2 fusion (human)
Technique: yeast growth competition, sequencing
Matrix: yeast
Setting: weak parent motif
Relative to: not given
Reading: higher = stronger binding
Starting sequence: LLGL2 docking peptide (human); KSLKKSLRQSFRR
Variant | normalised enrichment score
S2A | 0.331
R8A | 0.252
S10A | -0.311
R13A | 0.457
K1A | -0.11
L3A | 0.754

Study 3
Target: Centromere-binding protein 1, full length, His-tagged (CBF1, Saccharomyces cerevisiae, UniProt P17106, residues 1-351)
UniProt P17106, sequence (whole entry, looked up): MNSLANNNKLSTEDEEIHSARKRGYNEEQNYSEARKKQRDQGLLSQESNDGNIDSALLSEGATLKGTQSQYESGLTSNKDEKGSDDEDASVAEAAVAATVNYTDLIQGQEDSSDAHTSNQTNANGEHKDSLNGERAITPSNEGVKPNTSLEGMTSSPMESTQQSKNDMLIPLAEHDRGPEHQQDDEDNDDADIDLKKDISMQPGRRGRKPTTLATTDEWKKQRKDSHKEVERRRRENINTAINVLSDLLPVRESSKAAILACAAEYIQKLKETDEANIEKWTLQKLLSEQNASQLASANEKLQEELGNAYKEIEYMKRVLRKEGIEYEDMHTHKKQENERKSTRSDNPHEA
Technique: competition protein-binding microarray
Form: double-stranded DNA, one strand shown
Matrix: in vitro
Tested at: 2 µM
Setting: whole 60-bp probe, lowest competitor level
With: Pho4 competitor, 0.05 µM
Reading: higher = stronger binding
Constant ends, left off below: … GTCTTGATTCGCTTGACGCTGCTG
Strand | fluorescence intensity [a.u.]
GGCAGCCTTTTCCATCTCGTGAAATGTTTCAGCCTT | 112
GGATGAAAAACATAAAATGTGACGGATAGTGCCACC | 86.7
CGGGGTTAAGTTTGCCCTGTGGGTGGCTTGCAGCAG | 64.2
TAGCTAGGGAGCCCTTGCATGACAATTCTGCTAACA | 56.6
CTTGGCAAGTTTCCCCTCGTGGTGAAGGATGGCTCT | 69.5
CAGAATTTAGGCCTACACGATGGATGAAAAGGTGTA | 65.9
CAGCAATGAATTTGGCTCGTGATGGGGGCCCAGGTC | 205
TGCGCAACAACTTGTTTAGTGGGTGTATGTCTAGAA | 76.2
CATGGGGTTTATCCACTCGTGTCCTTGGTTTCATGG | 91.5
CTAACGAAGGTTTGCATGGTGGGTGACAAGCCAAGT | 67.5
GTCTTGTCTCATTGAGTTGTGGGTGTCCCCACTTCA | 95.9
CTAACGAAGGTTTTTCACGTGTTATACAAGCCAAGT | 908
ATAACCGCGCAATACCGCGTGCTGTATCGGCGTCCA | 86
CTTCTGTAAATTTGGGGTGTGGGTGGACGCGCCCCG | 78.4
TTGGTACTGGTATTGCACGTGGAAGTGGCGGAGCAG | 699
AAAAGCAACTCGACCGTCGTGGGTACAAACCCCACC | 63
TCTGGATCAGAAGATTACGTGTCCTGAGAAGATTAT | 75.9
TCGATGTCAAAAAATCTCGTGAGACCTCCGGAATTT | 124
TACGATACTACCATACATGTGATATGTCCCTTTCTA | 502

Study 4
Target: Interferon regulatory factor 5, full length, phosphomimetic (IRF5, Homo sapiens, UniProt Q13568-2, residues 1-514, K96S/S451D/S453D/S456D/S462D)
Technique: protein-binding microarray
Form: double-stranded DNA, one strand shown
Matrix: in vitro
Tested at: 250 nM
Setting: 60-bp whole probe
With: salmon DNA 0.4 mg/ml
Relative to: random background probes
Reading: higher = stronger binding
Constant ends, left off below: GCCTAGCAC … GTCTTGATTCGCTTGACGCTGCTG
Strand | log fluorescence
TCAGATATCGGGTTTCGATTAGTGCTA | 7.51 z-score
AACGGTTCCGGTTTCGGGACGTGCTAG | 5.1 z-score
GCCGGTATCCTTCTCCTGACGTGCTAG | 0.314 z-score
TTAGGTCTGCTTCTCCTTTAGTGCTAG | -0.122 z-score
GTAGGTATCGACTATCGGTTAGTGCTA | 7.98 z-score
TTAGCACTGAGACTGGATTAGTGCTAG | -0.0688 z-score
TTAGGACTGGGACTGCGTTAGTGCTAG | -0.575 z-score
TTAGAACTGAGACTGGATCAGTGCTAG | -0.275 z-score
CAGGTTCTCTTTTATTTTTTGTGCTAG | 0.714 z-score
CTGTGGGAGGCCCGCGGGAGGTGCTAG | -0.969 z-score
TCATGAACCATTTTGGTACTGTGCTAG | 0.287 z-score
TTAGAACTGCTTATCCTTTAGTGCTAG | 0.15 z-score
TTAGATTTCCTTCTCCTTTAGTGCTAG | 0.906 z-score
GCAAGAGGAAAGGAACATCAGTGCTAG | 0.177 z-score
TCAGTTTTGTTTTTCATACTGTGCTAG | 2.19 z-score
GACGAATTCGGGTATCGAGACGTGCTA | 1.02 z-score
TTAGATTTCGGGTATCGATGAGTGCTA | 6.77 z-score
TTAGATATCTGTATCGATTAGTGCTAG | 5.45 z-score
TTAGGACTCGACTATCGGTTAGTGCTA | 6.52 z-score

Study 5
Target: Prothrombin, mature alpha-thrombin (F2, Homo sapiens, UniProt P00734)
Technique: aptamer microarray, sandwich
Form: DNA with 2'F-ANA
Matrix: in vitro
Tested at: 200 nM
Setting: whole 15-mer aptamer, many near background
With: Cy3 exosite-II aptamer, 400 nM
Reading: higher = stronger binding
Strand: GGTTGGTGTGGTTGG
Modification | mean fluorescence intensity [a.u.]
2'F-ANA at 2 4 5 6 7 8 9 10 11 12 14 | 54.5
2'F-ANA at 1 5 10 11 12 14 | 47.2
2'F-ANA at 1 3 5 10 11 12 13 14 | 45
2'F-ANA at 5 6 9 10 12 13 15 | 50.5
2'F-ANA at 1 8 10 12 13 15 | 73.5
2'F-ANA at 1 2 3 4 5 6 8 9 10 11 13 14 | 52.1
2'F-ANA at 1 2 6 8 9 12 13 14 | 60.9
2'F-ANA at 1 2 3 5 9 13 15 | 50.7
2'F-ANA at 1 3 6 10 11 13 14 15 | 56.9
2'F-ANA at 1 2 6 7 8 9 10 13 14 | 48.6
2'F-ANA at 1 2 3 4 7 8 9 10 11 14 15 | 50.2
2'F-ANA at 3 4 6 10 11 12 13 15 | 241
2'F-ANA at 2 6 8 13 | 343
2'F-ANA at 1 2 3 4 7 9 10 11 13 14 15 | 53.9
2'F-ANA at 1 4 5 6 7 8 9 10 11 | 55.2
2'F-ANA at 1 2 3 5 7 10 11 13 | 89
2'F-ANA at 1 2 3 4 5 7 8 10 11 13 14 | 47.2
2'F-ANA at 1 2 3 5 7 13 14 | 46.8
2'F-ANA at 1 5 7 8 12 14 15 | 48.7
2'F-ANA at 1 2 3 5 6 7 9 12 14 | 46.9
2'F-ANA at 1 5 7 14 15 | 46.3

Excerpt of the above (study 4):
Strand | log fluorescence
TTAGAACTGAGACTGGATCAGTGCTAG | -0.275 z-score
CAGGTTCTCTTTTATTTTTTGTGCTAG | 0.714 z-score
CTGTGGGAGGCCCGCGGGAGGTGCTAG | -0.969 z-score
TCATGAACCATTTTGGTACTGTGCTAG | 0.287 z-score
TTAGAACTGCTTATCCTTTAGTGCTAG | 0.15 z-score
TTAGATTTCCTTCTCCTTTAGTGCTAG | 0.906 z-score
GCAAGAGGAAAGGAACATCAGTGCTAG | 0.177 z-score
TCAGTTTTGTTTTTCATACTGTGCTAG | 2.19 z-score
GACGAATTCGGGTATCGAGACGTGCTA | 1.02 z-score
TTAGATTTCGGGTATCGATGAGTGCTA | 6.77 z-score
TTAGATATCTGTATCGATTAGTGCTAG | 5.45 z-score
